# Measured values from different studies.
# Protocols differ between the studies behind these lines. ± gives the spread as reported.
# Ahr: Aryl hydrocarbon receptor (Ahr, Mus musculus, UniProt P30561)
# Chain of UniProt P30561 (whole entry, looked up): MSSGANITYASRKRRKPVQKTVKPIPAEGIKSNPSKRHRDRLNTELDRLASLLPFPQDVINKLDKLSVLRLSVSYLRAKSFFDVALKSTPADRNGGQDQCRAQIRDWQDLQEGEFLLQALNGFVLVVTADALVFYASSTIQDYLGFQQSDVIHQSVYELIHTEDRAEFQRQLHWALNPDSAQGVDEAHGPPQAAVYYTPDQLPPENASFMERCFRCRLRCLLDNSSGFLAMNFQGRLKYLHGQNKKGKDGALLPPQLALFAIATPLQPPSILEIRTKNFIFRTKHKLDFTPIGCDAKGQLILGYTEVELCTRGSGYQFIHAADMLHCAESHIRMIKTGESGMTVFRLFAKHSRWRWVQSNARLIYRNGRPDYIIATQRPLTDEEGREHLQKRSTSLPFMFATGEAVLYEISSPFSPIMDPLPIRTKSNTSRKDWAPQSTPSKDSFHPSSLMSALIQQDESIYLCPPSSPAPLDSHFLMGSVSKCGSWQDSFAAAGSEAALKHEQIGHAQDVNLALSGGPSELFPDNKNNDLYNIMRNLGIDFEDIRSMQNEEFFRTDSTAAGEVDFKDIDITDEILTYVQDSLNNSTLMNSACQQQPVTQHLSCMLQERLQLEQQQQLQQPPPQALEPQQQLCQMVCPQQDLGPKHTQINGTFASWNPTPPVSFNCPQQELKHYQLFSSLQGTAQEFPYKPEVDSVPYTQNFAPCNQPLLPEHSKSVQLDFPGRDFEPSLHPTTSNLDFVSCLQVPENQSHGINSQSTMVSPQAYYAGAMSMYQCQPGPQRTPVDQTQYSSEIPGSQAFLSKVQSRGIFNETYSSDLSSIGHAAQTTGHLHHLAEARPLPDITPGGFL
# CYP2E1: Cytochrome P450 2E1 (CYP2E1, Homo sapiens, UniProt P05181)
# Chain of UniProt P05181 (whole entry, looked up): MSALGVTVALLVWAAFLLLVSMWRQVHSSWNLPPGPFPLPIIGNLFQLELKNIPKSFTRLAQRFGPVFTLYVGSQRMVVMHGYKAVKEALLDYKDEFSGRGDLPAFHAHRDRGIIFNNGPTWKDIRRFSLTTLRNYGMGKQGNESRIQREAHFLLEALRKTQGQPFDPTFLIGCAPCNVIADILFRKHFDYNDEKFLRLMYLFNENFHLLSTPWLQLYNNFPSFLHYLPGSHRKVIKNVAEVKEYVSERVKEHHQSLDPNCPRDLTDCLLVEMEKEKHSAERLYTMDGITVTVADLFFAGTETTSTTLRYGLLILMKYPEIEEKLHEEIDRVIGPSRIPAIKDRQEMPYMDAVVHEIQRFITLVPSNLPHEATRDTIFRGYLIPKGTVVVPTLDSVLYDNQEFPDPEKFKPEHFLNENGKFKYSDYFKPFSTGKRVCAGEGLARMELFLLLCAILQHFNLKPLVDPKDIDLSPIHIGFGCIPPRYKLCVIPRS
# CYP1B1: Cytochrome P450 1B1 (CYP1B1, Homo sapiens, UniProt Q16678)
# Chain of UniProt Q16678 (whole entry, looked up): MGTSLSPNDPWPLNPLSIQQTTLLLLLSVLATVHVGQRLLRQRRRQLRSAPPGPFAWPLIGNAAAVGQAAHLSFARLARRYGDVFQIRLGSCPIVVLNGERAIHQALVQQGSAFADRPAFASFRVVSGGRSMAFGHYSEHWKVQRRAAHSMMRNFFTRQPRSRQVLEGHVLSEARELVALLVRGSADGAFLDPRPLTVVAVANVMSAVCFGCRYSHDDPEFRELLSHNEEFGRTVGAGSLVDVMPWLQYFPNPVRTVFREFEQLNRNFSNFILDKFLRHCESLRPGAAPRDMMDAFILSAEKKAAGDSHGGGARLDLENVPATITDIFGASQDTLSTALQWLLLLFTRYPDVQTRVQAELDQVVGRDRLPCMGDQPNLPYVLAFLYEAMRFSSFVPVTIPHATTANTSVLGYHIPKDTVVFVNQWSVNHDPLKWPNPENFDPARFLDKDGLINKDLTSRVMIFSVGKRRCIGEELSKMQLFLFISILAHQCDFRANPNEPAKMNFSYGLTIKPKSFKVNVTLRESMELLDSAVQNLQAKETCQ
# CYP1A2: Cytochrome P450 1A2 (CYP1A2, Homo sapiens, UniProt P05177)
# Chain of UniProt P05177 (whole entry, looked up): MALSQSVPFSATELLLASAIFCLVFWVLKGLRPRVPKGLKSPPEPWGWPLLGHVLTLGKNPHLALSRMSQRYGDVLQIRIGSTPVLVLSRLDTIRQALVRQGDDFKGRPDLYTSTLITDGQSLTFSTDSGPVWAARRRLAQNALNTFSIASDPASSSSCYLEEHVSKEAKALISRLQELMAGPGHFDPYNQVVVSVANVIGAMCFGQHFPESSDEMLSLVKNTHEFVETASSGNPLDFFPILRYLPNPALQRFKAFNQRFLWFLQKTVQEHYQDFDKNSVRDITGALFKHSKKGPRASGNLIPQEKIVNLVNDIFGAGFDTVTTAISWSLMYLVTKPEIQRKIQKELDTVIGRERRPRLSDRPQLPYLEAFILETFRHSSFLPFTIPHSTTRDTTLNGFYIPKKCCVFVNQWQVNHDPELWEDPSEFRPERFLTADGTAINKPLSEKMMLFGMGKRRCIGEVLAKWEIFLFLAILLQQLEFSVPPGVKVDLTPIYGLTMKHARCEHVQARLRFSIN
# Chain of UniProt Q12809 (whole entry, looked up): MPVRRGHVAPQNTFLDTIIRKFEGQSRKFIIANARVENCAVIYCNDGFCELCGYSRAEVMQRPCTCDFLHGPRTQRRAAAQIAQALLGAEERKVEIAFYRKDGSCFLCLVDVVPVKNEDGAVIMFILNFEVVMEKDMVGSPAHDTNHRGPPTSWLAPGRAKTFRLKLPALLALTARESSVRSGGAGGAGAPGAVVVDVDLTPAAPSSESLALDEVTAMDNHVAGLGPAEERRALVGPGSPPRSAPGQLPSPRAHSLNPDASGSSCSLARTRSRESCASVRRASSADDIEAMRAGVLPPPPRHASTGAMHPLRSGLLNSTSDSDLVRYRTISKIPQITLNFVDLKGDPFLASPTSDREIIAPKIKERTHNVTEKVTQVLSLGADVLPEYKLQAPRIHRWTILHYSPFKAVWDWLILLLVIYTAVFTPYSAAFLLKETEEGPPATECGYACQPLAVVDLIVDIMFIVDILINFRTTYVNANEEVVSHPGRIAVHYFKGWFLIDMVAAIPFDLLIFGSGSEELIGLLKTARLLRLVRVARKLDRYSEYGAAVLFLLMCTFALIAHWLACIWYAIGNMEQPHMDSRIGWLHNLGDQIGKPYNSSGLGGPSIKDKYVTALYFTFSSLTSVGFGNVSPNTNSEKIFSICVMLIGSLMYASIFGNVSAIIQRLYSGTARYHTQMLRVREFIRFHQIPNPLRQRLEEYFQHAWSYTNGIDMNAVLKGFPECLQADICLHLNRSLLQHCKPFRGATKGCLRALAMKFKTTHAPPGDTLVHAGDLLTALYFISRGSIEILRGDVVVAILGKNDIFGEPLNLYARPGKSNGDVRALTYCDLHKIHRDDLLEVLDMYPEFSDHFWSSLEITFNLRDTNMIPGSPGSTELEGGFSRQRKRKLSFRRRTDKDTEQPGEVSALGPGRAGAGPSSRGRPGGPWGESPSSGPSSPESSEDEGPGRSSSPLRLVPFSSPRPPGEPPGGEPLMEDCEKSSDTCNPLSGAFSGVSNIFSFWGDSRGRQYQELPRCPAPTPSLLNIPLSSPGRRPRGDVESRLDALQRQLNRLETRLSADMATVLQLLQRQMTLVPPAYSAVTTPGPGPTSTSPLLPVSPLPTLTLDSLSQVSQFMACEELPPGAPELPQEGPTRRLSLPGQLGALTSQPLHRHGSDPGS
# Chain of UniProt P10635 (whole entry, looked up): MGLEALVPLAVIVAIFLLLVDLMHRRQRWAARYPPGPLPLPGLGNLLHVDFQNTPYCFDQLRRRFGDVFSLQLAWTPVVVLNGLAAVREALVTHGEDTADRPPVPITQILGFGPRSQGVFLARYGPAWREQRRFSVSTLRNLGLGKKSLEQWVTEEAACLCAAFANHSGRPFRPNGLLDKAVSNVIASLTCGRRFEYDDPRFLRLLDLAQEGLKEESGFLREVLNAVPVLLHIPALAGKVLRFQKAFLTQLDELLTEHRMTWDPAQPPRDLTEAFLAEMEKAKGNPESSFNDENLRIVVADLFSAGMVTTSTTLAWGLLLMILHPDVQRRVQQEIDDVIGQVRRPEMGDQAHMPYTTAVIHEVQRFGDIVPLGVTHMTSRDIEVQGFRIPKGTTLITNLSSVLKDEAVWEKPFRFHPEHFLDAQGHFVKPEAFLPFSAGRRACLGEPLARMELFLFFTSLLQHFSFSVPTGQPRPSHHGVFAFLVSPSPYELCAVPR
# Chain of UniProt P06760 (whole entry, looked up): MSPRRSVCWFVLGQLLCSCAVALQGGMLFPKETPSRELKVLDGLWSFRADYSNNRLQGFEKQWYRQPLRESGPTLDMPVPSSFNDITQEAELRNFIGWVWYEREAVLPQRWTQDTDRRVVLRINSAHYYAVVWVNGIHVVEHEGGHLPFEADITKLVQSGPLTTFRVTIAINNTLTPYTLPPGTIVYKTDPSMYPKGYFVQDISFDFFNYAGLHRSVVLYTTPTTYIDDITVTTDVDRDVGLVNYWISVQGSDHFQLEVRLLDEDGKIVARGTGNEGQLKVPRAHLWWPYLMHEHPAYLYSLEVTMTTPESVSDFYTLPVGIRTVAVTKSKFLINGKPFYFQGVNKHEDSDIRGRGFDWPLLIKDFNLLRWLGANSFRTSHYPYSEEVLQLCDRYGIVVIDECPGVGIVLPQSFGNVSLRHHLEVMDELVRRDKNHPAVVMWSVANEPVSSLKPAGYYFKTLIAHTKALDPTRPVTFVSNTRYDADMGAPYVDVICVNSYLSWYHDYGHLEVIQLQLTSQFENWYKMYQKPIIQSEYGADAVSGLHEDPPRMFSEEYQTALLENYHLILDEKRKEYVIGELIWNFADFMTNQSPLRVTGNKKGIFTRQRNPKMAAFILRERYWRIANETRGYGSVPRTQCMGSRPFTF
Structure (SMILES),target,test,system,setting,quantity,value
Clc1ccc(-c2ccc(Cl)c(Cl)c2Cl)cc1Cl,Ahr,"binding, competitor",,"in vitro expressed receptor, with: [3H]TCDD",Ki,1620 nM
Clc1ccc(-c2ccc(Cl)c(Cl)c2)cc1Cl,Ahr,"reporter gene, agonist",Hepa-1c1c7,24 h,EC50,108 ± 39 nM
Clc1cc(-c2cc(Cl)c(Cl)c(Cl)c2)cc(Cl)c1Cl,Ahr,"binding, competitor",,"in vitro expressed receptor, with: [3H]TCDD",Ki,33 nM
O=S(=O)(O)Oc1ccc(-c2ccc(Cl)cc2Cl)cc1Cl,"sulfatase, human liver microsomes",substrate,,"pH 7.4, 37 °C",Km,27.9 ± 4.7 µM
CC(C)C=Cc1c(O)cc(/C=C/c2ccc(O)c(O)c2)cc1O,UGT1A9 human,"4'-O-glucuronide formation, substrate",,pH 7.4,Km,188 µM
O=[N+]([O-])c1ccc(O)cc1,CYP2E1,substrate,pooled human liver microsomes,"250 µM, pH 7.4, added enzyme to P450 ratio 0",hydroxylation rate,2.5 ± 0.4 min⁻¹
C#CCOc1ccccc1-c1ccccc1,CYP1B1,reverse type I spectral binding,,pH 7.4,Kd,114000 ± 16000 nM
Clc1ccc(-c2cc(Cl)c(Cl)c(Cl)c2)cc1,Ahr,"reporter gene, agonist",Hepa-1c1c7,24 h,EC50,32 ± 17.7 nM
CNC(=O)Oc1cc(C)c(SC)c(C)c1,CYP1A2,inhibitor,human liver microsomes,"2 µM, pH 7.4, with: phenacetin",inhibition,77.5%
COCCOCCOc1cnc(C2=N[C@@](C)(C(=O)[O-])CS2)c(O)c1.[Na+],Fe(III),Job's plot,,"pH 7.4, total 1.0 mM",Job's plot maximum mole fraction,0.676
CC(C)C[C@H](NC(=O)[C@H](Cc1ccc(O)cc1)NC(=O)[C@@H]1CCCN1C(=O)[C@@H]1CCCN1C(=O)[C@@H](N)CC(C)C)C(=O)N[C@@H](Cc1ccccc1)C(=O)N[C@H](C(=O)O)[C@@H](C)O,"ERG (Homo sapiens, UniProt P11308)",immunofluorescence,VCaP,"1 µM, 6 h",nuclear co-localization,78 ± 5%
OC[C@@H](O)c1ccccc1,CYP2E1,"enzyme activity, inhibitor",human liver microsomes,"concentration not given, at high concentration",residual activity,11%
O=S(=O)(O)Oc1ccc(-c2ccc(Cl)cc2)c(Cl)c1,"sulfatase, human liver microsomes",substrate,,"pH 7.4, 37 °C",Km,9.1 ± 2.2 µM
O=Cc1c(Cc2c[nH]c3ccccc23)[nH]c2ccccc12,"AHR (Homo sapiens, UniProt P35869)",,,,EC50,11 nM
Oc1ccc(/C=C/c2cc(O)cc(O)c2)cc1,UGT1A9 human,"4'-O-glucuronide formation, substrate",,pH 7.4,Km,792 ± 240 µM
C#CCOCCc1cccc2ccccc12,CYP1B1,reverse type I spectral binding,,pH 7.4,Kd,88000 ± 18000 nM
Clc1ccc(-c2cc(Cl)c(Cl)cc2Cl)cc1Cl,Ahr,"binding, competitor",,"in vitro expressed receptor, with: [3H]TCDD",Ki,3190 nM
O=C1Cc2cc(CCN3CCN(c4nsc5ccccc45)CC3)c(Cl)cc2N1,"Cytochrome P450 2D6 (CYP2D6, Homo sapiens, UniProt P10635)",inhibitor,human liver microsomes,"2 µM, pH 7.4, with: dextromethorphan",inhibition,< 0%
CCCCCCCC[N+](CCCCCCCC)(CCCCCCCC)CCCCCCCC,"KCNH2 (Homo sapiens, UniProt Q12809)","thallium influx, inhibitor, confirmation",hERG-transduced cells,,IC50,260 ± 100 nM
CSc1nc2cc(Cl)c(Oc3cccc(Cl)c3Cl)cc2[nH]1,CYP1A2,inhibitor,human liver microsomes,"10 µM, pH 7.4, with: phenacetin",inhibition,86.1%
C#CCOCc1ccccc1-c1ccccc1,CYP1B1,reverse type I spectral binding,,pH 7.4,Kd,146000 ± 15000 nM
CCCSc1ccc2nc(NC(=O)OC)[nH]c2c1,CYP1A2,inhibitor,human liver microsomes,"2 µM, pH 7.4, with: phenacetin",inhibition,31.1%
O=Cc1c(Cc2c[nH]c3ccccc23)[nH]c2ccccc12,Ahr,"reporter gene, activator",H1L7.5c3 (mouse),6 h,EC50,291 nM
C1CO1,"glutathione S-transferase, human","substrate, headspace gas uptake","human, liver cytosol",no saturation seen,Km,≥ 9000 µM
c1cc2c(cc1[C@H]1OC[C@H]3[C@@H]1CO[C@@H]3c1ccc3c(c1)OCO3)OCO2,rat CYP2C,mechanism-based inhibitor,rat liver microsomes,"concentration not given, 60 min",activity recovery,no effect
CC[N+]1=C(C=CC=CC=C2N(CCCCCC(=O)NCCN3C(=O)CC(SC[C@@H](NC(=O)[C@@H](CCCNC(=N)N)NC(=O)[C@@H](CCCNC(=N)N)NC(=O)[C@@H](CCCNC(=N)N)NC(=O)[C@@H](CCCNC(=N)N)NC(=O)[C@@H](CCCNC(=N)N)NC(=O)[C@@H](CCCNC(=N)N)NC(=O)[C@@H](CCCNC(=N)N)NC(=O)[C@@H](CCCNC(=N)N)NC(=O)[C@@H](CCCNC(=N)N)NC(=O)[C@H](CC(C)C)NC(=O)[C@H](CCCCN)NC(=O)[C@H](CC(C)C)NC(=O)[C@H](CCC(N)=O)NC(=O)[C@H](CC(C)C)NC(=O)[C@H](CCCNC(=N)N)NC(=O)CCCCCNC(=O)[C@@H](CCC(=O)O)NC(=O)[C@@H](CCC(=O)O)NC(=O)[C@@H](CCC(=O)O)NC(=O)[C@@H](CCC(=O)O)NC(=O)[C@@H](CCC(=O)O)NC(=O)[C@@H](CCC(=O)O)NC(=O)[C@@H](CCC(=O)O)NC(=O)[C@@H](CCC(=O)O)NC(=O)[C@H](N)CCC(=O)O)C(N)=O)C3=O)c3ccc(S(=O)(=O)O)cc3C2(C)C)C(C)(C)c2cc(S(=O)(=O)[O-])ccc21 (some centres unmarked),"HPN (Homo sapiens, UniProt P05981)","substrate cleavage, substrate, Tricine gel",,"5 µM, with: enzyme 50 nM",cleavage,< 3%
CCCC[C@@H]1NC(=O)[C@H](C(C)C)NC(=O)[C@H](Cc2c[nH]cn2)NC(=O)[C@H]([C@@H](C)CC)NC(=O)[C@H](CC(=O)O)NC(=O)[C@@H](NC(=O)C[C@H](CC(N)=O)NC(=O)[C@@H]2CCCN2C(=O)C[C@H](CCC(=O)O)NC(=O)[C@@H](N)C(C)C)CSSC[C@@H](C(=O)N[C@@H](Cc2ccccc2)C(=O)N[C@H]2CNC[C@@H]2C(=O)N[C@@H](CCCNC(=N)N)C(=O)N[C@H](CC(N)=O)CC(C)C)NC(=O)[C@H](CCC(=O)O)NC(=O)[C@H](Cc2c[nH]c3ccccc23)NC(=O)C[C@H](CCC(=O)O)NC(=O)[C@H](Cc2c[nH]c3ccccc23)NC1=O,"Proteinase K (PROK, Engyodontium album, UniProt P06873)",proteolytic stability,TBS,"50 µM, pH 7.5, 5% DMSO, with: proteinase K 10 µg/mL",half-life,24 min
CCC[S+]([O-])c1ccc2[nH]c(NC(=O)OC)nc2c1 (centres unmarked),CYP1A2,inhibitor,human liver microsomes,"2 µM, pH 7.4, with: phenacetin",inhibition,3.17%
O=C1Nc2ccc(Cl)cc2[C@@](C#CC2CC2)(C(F)(F)F)O1,"Cytochrome P450 2B6 (CYP2B6, Homo sapiens, UniProt P20813)",,"healthy human, plasma","oral, 50 mg, with: midazolam 2 mg, no ritlecitinib",Cmax,300 ng/mL
C#CCOCc1cccc2ccccc12,CYP1B1,reverse type I spectral binding,,pH 7.4,Kd,92000 ± 10000 nM
CC(C)C=Cc1c(O)cc(/C=C/c2ccc(O)cc2)cc1O,UGT1A9 human,"4'-O-glucuronide formation, substrate",,pH 7.4,Km,21.3 ± 5.2 µM
COc1c(O[C@@H]2O[C@H](C(=O)O)[C@@H](O)[C@H](O)[C@H]2O)cc(O)c2c(=O)cc(-c3ccccc3)oc12,"Beta-glucuronidase (Rattus norvegicus, UniProt P06760)","hydrolysis, substrate",rat small intestine S9 fraction,,Km,25 to 30 µM

# Repeated from above:
Structure (SMILES),target,test,system,setting,quantity,value
CC[N+]1=C(C=CC=CC=C2N(CCCCCC(=O)NCCN3C(=O)CC(SC[C@@H](NC(=O)[C@@H](CCCNC(=N)N)NC(=O)[C@@H](CCCNC(=N)N)NC(=O)[C@@H](CCCNC(=N)N)NC(=O)[C@@H](CCCNC(=N)N)NC(=O)[C@@H](CCCNC(=N)N)NC(=O)[C@@H](CCCNC(=N)N)NC(=O)[C@@H](CCCNC(=N)N)NC(=O)[C@@H](CCCNC(=N)N)NC(=O)[C@@H](CCCNC(=N)N)NC(=O)[C@H](CC(C)C)NC(=O)[C@H](CCCCN)NC(=O)[C@H](CC(C)C)NC(=O)[C@H](CCC(N)=O)NC(=O)[C@H](CC(C)C)NC(=O)[C@H](CCCNC(=N)N)NC(=O)CCCCCNC(=O)[C@@H](CCC(=O)O)NC(=O)[C@@H](CCC(=O)O)NC(=O)[C@@H](CCC(=O)O)NC(=O)[C@@H](CCC(=O)O)NC(=O)[C@@H](CCC(=O)O)NC(=O)[C@@H](CCC(=O)O)NC(=O)[C@@H](CCC(=O)O)NC(=O)[C@@H](CCC(=O)O)NC(=O)[C@H](N)CCC(=O)O)C(N)=O)C3=O)c3ccc(S(=O)(=O)O)cc3C2(C)C)C(C)(C)c2cc(S(=O)(=O)[O-])ccc21 (some centres unmarked),"HPN (Homo sapiens, UniProt P05981)","substrate cleavage, substrate, Tricine gel",,"5 µM, with: enzyme 50 nM",cleavage,< 3%
CCCC[C@@H]1NC(=O)[C@H](C(C)C)NC(=O)[C@H](Cc2c[nH]cn2)NC(=O)[C@H]([C@@H](C)CC)NC(=O)[C@H](CC(=O)O)NC(=O)[C@@H](NC(=O)C[C@H](CC(N)=O)NC(=O)[C@@H]2CCCN2C(=O)C[C@H](CCC(=O)O)NC(=O)[C@@H](N)C(C)C)CSSC[C@@H](C(=O)N[C@@H](Cc2ccccc2)C(=O)N[C@H]2CNC[C@@H]2C(=O)N[C@@H](CCCNC(=N)N)C(=O)N[C@H](CC(N)=O)CC(C)C)NC(=O)[C@H](CCC(=O)O)NC(=O)[C@H](Cc2c[nH]c3ccccc23)NC(=O)C[C@H](CCC(=O)O)NC(=O)[C@H](Cc2c[nH]c3ccccc23)NC1=O,"Proteinase K (PROK, Engyodontium album, UniProt P06873)",proteolytic stability,TBS,"50 µM, pH 7.5, 5% DMSO, with: proteinase K 10 µg/mL",half-life,24 min
